# Assay results gathered from unrelated publications.
# Each numbered part is a random draw from the data of one study; scales do not carry over between parts. Substitutions count along the parent as printed.

# Sample 1 — method: RNA Bind-n-Seq; molecule type: RNA; medium: in vitro; concentration: 1 µM; setting: whole 134-nt RNA, ends assumed; with: 150 mM KCl; baseline: input library; direction: higher = stronger binding
# Target: Ras GTPase-activating protein-binding protein 1, C-terminal RGG region (G3BP1, Homo sapiens, UniProt Q13283)
# UniProt Q13283, sequence (whole entry, looked up): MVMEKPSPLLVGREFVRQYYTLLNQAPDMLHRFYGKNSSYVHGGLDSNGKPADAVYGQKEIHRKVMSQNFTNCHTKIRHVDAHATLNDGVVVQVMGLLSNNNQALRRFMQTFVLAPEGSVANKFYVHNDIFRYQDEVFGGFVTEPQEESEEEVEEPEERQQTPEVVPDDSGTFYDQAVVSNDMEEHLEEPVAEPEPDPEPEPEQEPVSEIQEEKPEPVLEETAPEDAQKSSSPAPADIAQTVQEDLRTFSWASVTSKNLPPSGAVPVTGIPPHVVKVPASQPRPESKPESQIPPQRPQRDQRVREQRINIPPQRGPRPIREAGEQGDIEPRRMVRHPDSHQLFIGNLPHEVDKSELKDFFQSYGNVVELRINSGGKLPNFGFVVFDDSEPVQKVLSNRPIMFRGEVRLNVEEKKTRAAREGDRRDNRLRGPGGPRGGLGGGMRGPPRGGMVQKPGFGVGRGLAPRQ
# Shared flanks, not repeated: GGGAGUUCUACAGUCCGACGAUC … UGGAAUUCUCGGGUGUCAAGG
Oligonucleotide,log2 enrichment
UUGUGAUAGCCAAGUGGGACUACACCGCCCAGCAGGACCAGGAGCUGGACAUCAAGAAGAACGAGCGGCUGUGGUUGCUGGACGACUCCA,-1.72
UCCUGUGCUACACAUCGUAUGUACCGAAUCGGGGAAAAAAAGGGGAGGGGAAAAAGGGGAAAGUAUUAUGUUACGCCGUUCGGAUCUGCA,1.41
CCUCAAGUCCUGUGCUACACAUCGUAUGUACCGAAUCGGGCGGGCGGGCGGGAAAGUAUUAUGUUACGCCGUUCGGAUCUGCACUUCCAG,1.73
CCUCAAGUCCUGUGCUACACAUCGUAUGUACCGAAUCGGCGGGGCGGGGCGGGAAAGUAUUAUGUUACGCCGUUCGGAUCUGCACUUCCA,0.647
GCAGGAGGUAAAAACAAAUGGAAAUGCUUCGGAUAGUGGCAGGGGUGGGGGUUGCUAAGGAAAGGGUGGGAUGGGAGUGGGUAAAGAGUU,1.76
AAGUCCUGUGCUACACAUCGUAUGUACCGAAUCGGGGCCCCGGCCCCGGCCCCGGGAAAGUAUUAUGUUACGCCGUUCGGAUCUGCACUU,-1.97
UUAGGUGGCUCCAGGAUGUAUUUAACGUGCCCUUGGUCAUCCAGAUGACGGAUGACGAGAAGUAUCUGUGGAAGGACCUGACCCUGGACC,-1.06
UCAAGUCCUGUGCUACACAUCGUAUGUACCGAAUCGGUUUUUUUGGAAAGGAGGAAAGUAUUAUGUUACGCCGUUCGGAUCUGCACUUCC,-1.26
UCAAGUCCUGUGCUACACAUCGUAUGUACCGAAUCGGGUUUGGGUUUGGGAGGGAAAGUAUUAUGUUACGCCGUUCGGAUCUGCACUUCC,1.9
AGUCCUGUGCUACACAUCGUAUGUACCGAAUCGGGUGGGAAAAAAAGGGAAAAAGGGAAAGUAUUAUGUUACGCCGUUCGGAUCUGCACU,0.09

# Sample 2 — method: protein binding microarray; molecule type: double-stranded DNA, one strand shown; medium: in vitro; concentration: not given; baseline: not given; direction: higher = stronger binding
# Target: Histone acetyltransferase KAT6A, winged helix 2, GST fusion (KAT6A, Homo sapiens, UniProt Q92794, residues 85-181)
# Setting: 8-mer, flanks averaged, mean of 2 arrays, mostly near background
# Residues (chain): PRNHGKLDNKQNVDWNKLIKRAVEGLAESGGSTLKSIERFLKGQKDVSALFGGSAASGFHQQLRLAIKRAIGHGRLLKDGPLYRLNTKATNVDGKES
Oligonucleotide,E-score
GAACTGCA,0.0347
CATTGACA,-0.0789
TGACTAAA,0.0605
AGCGCGGA,0.152
CGAGTGTA,-0.0412
ATACAGGG,-0.0112
AACCGGCA,0.0551
ATTCTTGA,-0.087
CCGCCTCC,0.104
CCCACGCC,0.0194
CCCGTGGC,0.11
CGATCGAC,-0.011
AGTATCAA,0.0863
ACTACACG,-0.114
GACAGAGC,0.0332
TCCAGAAA,-0.0951
CATGATGC,0.0127
ATTTAAAT,0.119
ATCAGACA,-0.0604
TAGAAATA,0.0244
AGAGTCGG,-0.0136
CGGAGCGA,0.286
AATGAGTA,-0.085
ACAAAACC,0.0524
CAATATGC,-0.139

# Sample 3 — method: DHFR PCA, deep sequencing; medium: yeast; with: (+)-ABA 200 µM; baseline: wild-type fitted maximum; direction: higher = stronger binding
# Target: ABI1, truncated, D143A, DHFR fusion (Arabidopsis thaliana)
# Setting: methotrexate growth selection, single substitutions
# Parent: PYL1, truncated, DHFR fusion (Arabidopsis thaliana); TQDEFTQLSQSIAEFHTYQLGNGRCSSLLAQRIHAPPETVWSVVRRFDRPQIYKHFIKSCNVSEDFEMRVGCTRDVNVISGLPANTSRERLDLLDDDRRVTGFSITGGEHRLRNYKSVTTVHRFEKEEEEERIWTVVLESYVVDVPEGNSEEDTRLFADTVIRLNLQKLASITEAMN; partner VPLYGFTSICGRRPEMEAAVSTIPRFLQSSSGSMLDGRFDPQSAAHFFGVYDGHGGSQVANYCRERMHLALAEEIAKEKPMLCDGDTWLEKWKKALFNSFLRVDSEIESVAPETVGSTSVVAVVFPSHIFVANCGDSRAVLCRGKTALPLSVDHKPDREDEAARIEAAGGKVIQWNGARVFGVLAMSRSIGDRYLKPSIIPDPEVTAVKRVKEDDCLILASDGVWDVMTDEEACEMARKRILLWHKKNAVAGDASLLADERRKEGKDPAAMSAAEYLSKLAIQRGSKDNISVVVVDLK
Variant,relative binding score [%]
K168T,101
H110I,-1.37
E64V,99.8
D96Q,58.4
E129S,110
A84R,9.3
L94T,44.9
T135Y,-0.432
R123M,103
E14H,99.5
L138V,84.3
L29G,3.76

# Sample 4 — method: protein-binding microarray; molecule type: double-stranded DNA, one strand shown; medium: in vitro; concentration: 940 nM top; setting: 60-bp whole probe; with: salmon DNA 0.4 mg/ml; baseline: random background probes; direction: higher = stronger binding; shared flanks, not repeated: GCCTAGCAC … GTCTTGATTCGCTTGACGCTGCTG
# Target: Interferon regulatory factor 5, full length, phosphomimetic (IRF5, Homo sapiens, UniProt Q13568-2, residues 1-514, S451D/S453D/S456D/S462D)
Oligonucleotide,fitted relative affinity [z-score]
ACTAGTTTCCATTTTCAGAAGTGCTAG,2.68
TTAGGACTGGGGTATCGGCTAGTGCTA,0.704
GACGAACTGAGACTGGTGACGTGCTAG,-0.186
TTAGGTCTCCTTATCCCTTAGTGCTAG,0.575
TTAGGTTTCGGTCTCGGCTAGTGCTAG,15.3
CTAGGTATCGACTTTCGGTTAGTGCTA,5.22
TAAGGTCTCGGTTTCGGTTAGTGCTAG,9.58
TAAGATTTCAGTATCGATTAGTGCTAG,5.98
GACGGTTTCCTACAGCTGACGTGCTAG,0.63
GACCGTATCCTTTTCCTGACGTGCTAG,1.1
GACGGTATCCTTCTCCTAACGTGCTAG,0.589
GACGATATCGGGTATGGAGACGTGCTA,0.0588
TTAAGTATCGGTCTCGGTTAGTGCTAG,10.1
GACGGTATCGTTCTCCTGACGTGCTAG,4.56
GACGGTTCCGGTTTTGGGACGTGCTAG,2.68
TTAGGTATCCCTTTCCTTTAGTGCTAG,1.35
TAAGGTTTCGGTTTCGGTTAGTGCTAG,15.4
TATGTTGTCCAGGCTGGTCTCGTGCTA,-0.422
TTAGATCTCAGCCTGGATTAGTGCTAG,-0.229
GACGAACTGGGGTATCGAGACGTGCTA,1.03
TTAGGACTGGACACTGTGTTAGTGCTA,-0.484
GACGATATCGGTATCGAGACGTGCTAG,2.33
TTAGGACCGGGTATCGGTTAGTGCTAG,3.25
TTAGGTTCCCTTTCCCTTTAGTGCTAG,0.528
TCATTTATATGCTATGTAACTGTGCTA,0.222

# For quick reference, copied from above (sample 3):
Variant,relative binding score [%]
A84R,9.3
K168T,101
L138V,84.3
H110I,-1.37
R123M,103
L94T,44.9
T135Y,-0.432
E129S,110
E14H,99.5
D96Q,58.4
